# Results of several laboratories.
# Numbered parts are unrelated; each lists some results of a single study.

# Series 1 — effect on: peptide-MHC binding; form: peptide; direction: direction not given
# Target: HLA class I histocompatibility antigen, A alpha chain, allele A*80:01 (Homo sapiens, UniProt P04439)
Sequence,z-score of log IC50
GFAIPIILK,0.38
AENCYNLEI,0.38
ALGGSCHTT,0.38
CSDSDGLAP,0.38
FPIPTEVVA,0.38
CASSSDWFY,0.38
AVDWYQQRI,0.38
GIVSSMHYK,0.38
FLAFFSNGV,0.38
AVGVVCTGL,0.38
AKATGRYNL,0.38
FTARIIIFS,0.38
DEQEFFYSQ,0.38
DEGFHAATV,0.38
ASSEPHCAL,0.38
GHMMVIFRL,0.38
FPLWNTEKI,0.38
AQKLATKPV,0.38
FRRVAHSSL,0.38
GGRKLKLTK,0.38
DEYGPVFVE,0.38
AVDADDSHF,0.38
ATPHSVWVF,0.38
FPDGKPFTL,0.38
AMPKTIYEL,0.38

# Series 2 — technique: protein binding microarray; form: double-stranded DNA, one strand shown; sample: in vitro; concentration: not given; relative to: not given; direction: higher = stronger binding
# Target: Histone acetyltransferase KAT6A, winged helix 1, GST fusion (KAT6A, Homo sapiens, UniProt Q92794, residues 1-85)
# Notes: 8-mer, flanks averaged, mean of 2 arrays, mostly near background
# Residues (chain): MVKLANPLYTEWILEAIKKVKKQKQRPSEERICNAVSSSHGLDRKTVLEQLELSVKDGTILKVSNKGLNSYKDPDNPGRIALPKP
Sequence,E-score
ACTGGGGG,-0.0163
CGACTAGC,0.13
CCTTTGAA,-0.167
TCTAGGCA,-0.21
AACTATGG,-0.0463
AATAGATG,-0.117
GGCATCCC,0.0791
CGTCAGGC,0.103

# Series 3 — effect on: enzyme activity; action: inhibitor; technique: radiometric; concentration: 0.5 µM
# Target: Leukocyte tyrosine kinase receptor (LTK, Homo sapiens, UniProt P29376)
# UniProt P29376, sequence (whole entry, looked up): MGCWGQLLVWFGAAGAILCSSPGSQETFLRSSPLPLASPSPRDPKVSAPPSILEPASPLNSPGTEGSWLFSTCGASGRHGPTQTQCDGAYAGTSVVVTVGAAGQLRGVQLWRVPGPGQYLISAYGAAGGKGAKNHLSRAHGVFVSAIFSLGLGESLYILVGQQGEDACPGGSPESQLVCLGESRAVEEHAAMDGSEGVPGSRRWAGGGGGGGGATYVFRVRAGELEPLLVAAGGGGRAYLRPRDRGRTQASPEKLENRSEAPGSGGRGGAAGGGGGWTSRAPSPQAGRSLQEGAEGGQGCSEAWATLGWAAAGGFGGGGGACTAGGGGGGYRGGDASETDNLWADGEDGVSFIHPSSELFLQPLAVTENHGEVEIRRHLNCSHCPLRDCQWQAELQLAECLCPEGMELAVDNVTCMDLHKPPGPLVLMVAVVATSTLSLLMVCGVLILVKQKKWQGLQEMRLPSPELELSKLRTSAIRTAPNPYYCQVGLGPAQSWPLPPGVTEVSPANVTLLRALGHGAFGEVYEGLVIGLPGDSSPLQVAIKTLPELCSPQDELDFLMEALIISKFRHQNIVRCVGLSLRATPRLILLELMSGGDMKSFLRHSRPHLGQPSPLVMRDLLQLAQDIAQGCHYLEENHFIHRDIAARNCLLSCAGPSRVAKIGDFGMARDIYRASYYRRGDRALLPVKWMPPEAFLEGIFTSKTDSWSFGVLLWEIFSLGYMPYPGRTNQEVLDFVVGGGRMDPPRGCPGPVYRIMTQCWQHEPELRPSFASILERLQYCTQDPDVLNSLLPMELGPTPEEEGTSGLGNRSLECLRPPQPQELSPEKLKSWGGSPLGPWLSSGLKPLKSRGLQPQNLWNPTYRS
Structure (SMILES),remaining activity
O=C1C(Cl)=C(N2C(=O)CCC2=O)C(=O)c2ccccc21,100%
O=C(Nc1cccc(Nc2nccc(Nc3cccc(C(F)(F)F)c3)n2)c1)C1CC1,104%
c1ccc(-c2cnc(Nc3ccc(OCCN4CCCC4)cc3)s2)cc1,93.8%
O=C1Nc2ccc(Cl)cc2C1=Cc1cc(Cl)c(O)c(Cl)c1,36.9%
Cn1nc2c3c(cccc31)C(=O)c1ccccc1-2,86.7%

# Series 4 — technique: protein-binding microarray; form: double-stranded DNA, one strand shown; sample: in vitro; concentration: 0.8 µM; notes: whole 60-bp probe, no competitor; direction: higher = stronger binding
# Target: Centromere-binding protein 1, full length, N-terminal tag (CBF1, Saccharomyces cerevisiae, UniProt P17106, residues 1-351)
# UniProt P17106, sequence (whole entry, looked up): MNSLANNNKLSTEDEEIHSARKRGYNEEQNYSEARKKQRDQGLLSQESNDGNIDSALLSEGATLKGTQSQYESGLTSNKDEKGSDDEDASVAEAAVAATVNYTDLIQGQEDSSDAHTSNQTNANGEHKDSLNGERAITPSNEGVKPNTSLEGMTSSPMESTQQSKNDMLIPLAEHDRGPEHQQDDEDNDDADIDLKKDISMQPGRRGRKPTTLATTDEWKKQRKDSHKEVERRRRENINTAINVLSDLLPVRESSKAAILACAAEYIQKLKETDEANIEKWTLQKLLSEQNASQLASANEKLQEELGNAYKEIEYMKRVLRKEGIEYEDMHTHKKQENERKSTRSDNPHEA
Sequence,fluorescence intensity
CTAGTTCTTGTACACGTGGAAACGCCCGATATATTCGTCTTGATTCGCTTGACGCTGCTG,3410 a.u.
CTATTGGTCTGAAAACACGTGTAGTACTTTCTCTTCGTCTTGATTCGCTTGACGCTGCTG,4120 a.u.
CTAGATCCCTGAAGTCATGCCCCTCACCTTCATTTCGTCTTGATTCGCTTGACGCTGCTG,624 a.u.
TGTACGAAGCTATATCAGGCATATATAGTAGTTAGGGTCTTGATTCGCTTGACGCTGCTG,541 a.u.
CTAACGAACGTTCACCAGACATTTGGAGGCAGCTTCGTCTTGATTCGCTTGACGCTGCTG,496 a.u.
GAAGTATATGCATTGTACGTGCGTTTATTCTTATAGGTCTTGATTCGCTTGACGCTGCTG,521 a.u.
GAATGTGTGCCGGGTCATGAGATGCCAAACTAATAGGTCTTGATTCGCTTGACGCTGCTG,663 a.u.
GAAATATGTTTGTATGTTGTGATCTAGCACTTCTAGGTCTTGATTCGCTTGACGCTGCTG,572 a.u.

# Series 5 — technique: protein-binding microarray; form: hairpin DNA; sample: in vitro; concentration: not given; relative to: not given; direction: higher = stronger binding; shared flanks, not repeated: GAGGCCG … CGGCCTCACACTC
# Target: Cyclic AMP-responsive element-binding protein 1, full length (CREB1, Homo sapiens, UniProt P16220, residues 1-327)
# UniProt P16220, sequence (whole entry, looked up): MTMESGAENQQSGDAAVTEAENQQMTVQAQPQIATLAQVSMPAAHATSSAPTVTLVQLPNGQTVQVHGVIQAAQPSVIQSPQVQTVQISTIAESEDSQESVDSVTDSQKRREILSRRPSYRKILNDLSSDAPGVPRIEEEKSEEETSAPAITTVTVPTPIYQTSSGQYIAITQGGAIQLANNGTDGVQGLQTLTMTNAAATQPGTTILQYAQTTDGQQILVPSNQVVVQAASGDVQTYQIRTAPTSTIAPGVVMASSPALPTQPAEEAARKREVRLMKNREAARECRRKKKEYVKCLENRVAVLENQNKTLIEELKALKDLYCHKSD
# Notes: whole hairpin DNA, median over replicate spots
Sequence,median fluorescence
GACGACGTCAGCCTCCTGGCTGACGTCGTC (5mC at 34),4240 a.u.
ACGACGTCCTGCCTCCTGGCAGGACGTCGT (5mC at 9 15 16 35),3000 a.u.
GCTGTCGTCAGCCTCCTGGCTGACGACAGC,3540 a.u.
ACCACGTCGTGCCTCCTGGCACGACGTGGT (5mC at 9 15 29),4230 a.u.
GCTGACGTCAGCCTCCTGGCTGACGTCAGC (5mC at 9),12900 a.u.
GCTGACGTGAGCCTCCTGGCTCACGTCAGC (5mC at 29),5090 a.u.
GATGACGTCCGCCTCCTGGCGGACGTCATC,7700 a.u.
GCTGGCGTCAGCCTCCTGGCTGACGCCAGC (5mC at 33),7920 a.u.

# Single results of other studies
SMILES,cell line,assay,setting,scale,endpoint,result
NCCCCCNC1(c2ccccc2)CCCCC1,mouse MPNST tumor cells,"high-content immunofluorescence imaging, refers to: nuclear SOX9","10 µM, 12 h, mean of 2 replicates","relative to: DMSO control, higher = more nuclear SOX9",nuclear SOX9 intensity,168 % of DMSO

# Repeated from above (series 4):
Sequence,fluorescence intensity
CTAGTTCTTGTACACGTGGAAACGCCCGATATATTCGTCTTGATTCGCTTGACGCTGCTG,3410 a.u.
CTATTGGTCTGAAAACACGTGTAGTACTTTCTCTTCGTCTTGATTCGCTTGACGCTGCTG,4120 a.u.
CTAGATCCCTGAAGTCATGCCCCTCACCTTCATTTCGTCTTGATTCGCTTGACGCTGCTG,624 a.u.
TGTACGAAGCTATATCAGGCATATATAGTAGTTAGGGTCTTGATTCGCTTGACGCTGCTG,541 a.u.
CTAACGAACGTTCACCAGACATTTGGAGGCAGCTTCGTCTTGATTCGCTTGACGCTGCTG,496 a.u.
GAAGTATATGCATTGTACGTGCGTTTATTCTTATAGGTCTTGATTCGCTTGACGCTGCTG,521 a.u.
GAATGTGTGCCGGGTCATGAGATGCCAAACTAATAGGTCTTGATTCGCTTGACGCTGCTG,663 a.u.
